# Published values pooled from the literature.
# Lines come from different studies, so protocols differ. Numbers after ± are the reported error.
# Cell line: HepG2
SMILES,assay,system,conditions,how to read,measurement,value
COc1ccc(Nc2ccnc3ccc(-c4ccc(S(=O)(=O)N5CCOCC5)cc4)cc23)cc1C,"cytotoxicity, MTT",,48 h,,TC50,9 µM
CC(C)(O)c1ccc(OCCc2cccc(F)c2)c(C(N)=O)c1,,galactose medium,3 (unit not given),,CC50,78 ± 13 µM
CCc1nnc(Nc2ccnc3ccc(-c4ccc(S(=O)(=O)N5CCOCC5)cc4)cc23)s1,"cytotoxicity, MTT",,48 h,,TC50,> 20 µM
CN(C)N=O,micronucleus,,"concentration not given, at maximum tested concentration",reference: vehicle,micronucleus frequency,1.1 fold
CC[C@H](C)[C@H](NC(=O)[C@H](CCCCN)NC(=O)[C@H](CCCCN)NC(=O)[C@H](Cc1ccccc1)NC(=O)[C@@H](NC(=O)[C@@H](NC(=O)[C@H](CCCNC(=N)N)NC(=O)[C@H](Cc1ccccc1)NC(=O)[C@@H](NC(=O)[C@H](CCCCN)NC(=O)[C@H](CCCCN)NC(=O)[C@@H](N)CCSC)[C@@H](C)CC)C(C)C)[C@@H](C)CC)C(=O)N[C@@H](CC(C)C)C(=O)N[C@@H](CCCCN)C(=O)N[C@@H](CCCNC(=N)N)C(=O)N[C@@H](CC(C)C)C(=O)N[C@H](C(=O)N[C@H](C(=O)O)C(C)C)[C@@H](C)CC,CCK-8,,"64 µg/mL, 24 h",,viability,7.96%
O=S(=O)(c1ccc(-c2ccc3nccc(Nc4ccc5[nH]nnc5c4)c3c2)cc1)N1CCOCC1,"cytotoxicity, MTT",,48 h,,TC50,> 20 µM
Fc1cccc(COc2ccc(Nc3ccnc4cc(-c5cccc(N6CCOCC6)c5)ccc34)cc2Cl)c1,"cytotoxicity, MTT",,48 h,,TC50,> 5 µM
[Cl][Cd][Cl],micronucleus formation,,,,lowest effective concentration,1.5 µM
Cc1noc(C)c1Nc1ccnc2ccc(-c3ccc(S(=O)(=O)N4CCOCC4)cc3)cc12,"cytotoxicity, MTT",,48 h,,TC50,> 20 µM
Cc1nc(-c2ccc(OCCc3cccc(F)c3)c(C(N)=O)c2)cs1,,galactose medium,3 (unit not given),,CC50,40 ± 20 µM
O=C/C=C/c1ccccc1,MTT,,"3.1 to 50 µg/mL, 48 h, 10% FBS",,viability,> 90%
CN1CCN(S(=O)(=O)c2ccc(-c3ccc4c(Nc5ccc(OCc6cccc(F)c6)c(Cl)c5)nncc4c3)cc2)CC1,"cytotoxicity, MTT",,48 h,,TC50,> 15 µM
Cc1cc2c(=O)n(Cc3cncnc3)c(=S)[nH]c2cn1,,,24 h,,LD50,> 100 µM
CS(=O)(=O)Nc1ncn(-c2cc(F)c(COc3ccc(OS(=O)(=O)F)cc3)c(F)c2)n1,,,,,CC50,> 40 µM
N.N.[Cl][Pt][Cl],micronucleus formation,,,,lowest effective concentration,0.8 µM
NC(=O)c1cc(Br)ccc1OCCc1cccc(F)c1,,galactose medium,3 (unit not given),,CC50,52 ± 0.5 µM
N#Cc1cnc(Nc2ccnc3ccc(-c4ccc(S(=O)(=O)N5CCOCC5)cc4)cc23)cn1,"cytotoxicity, MTT",,48 h,,TC50,> 20 µM
CC(c1cncnc1)n1c(=S)[nH]c2ccc(Cl)cc2c1=O (stereo not drawn),,,24 h,,LD50,> 100 µM
CN1CCN(S(=O)(=O)c2ccc(-c3ccc4cnnc(Nc5ccc(OCc6cccc(F)c6)c(Cl)c5)c4c3)cc2)CC1,"cytotoxicity, MTT",,48 h,,TC50,> 5 µM
CC[C@H]1CN2CCc3cc(OC)c(OC)cc3[C@@H]2C[C@@H]1C[C@H]1NCCc2cc(OC)c(OC)cc21,,,72 h,reference: HepG2 CC50 over EC50,selectivity index,64
Cc1cc2c(=O)n(Cc3cccnc3)c(=S)[nH]c2cn1,,,24 h,,LD50,> 100 µM
Cc1ccc(OCCc2cc(F)cc(F)c2)c(C(N)=O)c1,,galactose medium,3 (unit not given),,CC50,65 ± 22 µM
CCn1nccc1Nc1ccnc2ccc(-c3ccc(S(=O)(=O)N4CCOCC4)cc3)cc12,"cytotoxicity, MTT",,48 h,,TC50,> 20 µM
COCCNC(=O)c1cc(-c2ccoc2)ccc1OCCc1cccc(F)c1,,galactose medium,3 (unit not given),,CC50,> 100 µM
Cc1cnc(Nc2ccnc3ccc(-c4ccc(S(=O)(=O)N5CCOCC5)cc4)cc23)s1,"cytotoxicity, MTT",,48 h,,TC50,> 20 µM
CCc1ccc(OCCc2cccc(F)c2)c(C(N)=O)c1,,,3 (unit not given),reference: CC50 glucose over CC50 galactose,selectivity ratio,> 1
C[C@H]1CCC/C=C/[C@@H]2C[C@H](O)C[C@H]2[C@H](O)/C=C/C(=O)O1,,,72 h,reference: HepG2 CC50 over EC50,selectivity index,987
Cc1ccc(OCCc2cccc(F)c2)c(C(N)=O)c1,,galactose medium,3 (unit not given),,CC50,40 ± 6.5 µM
Cc1c2ccccc2c(C)c2c1ccc1ccccc12,,,"maximum tested, 24 (unit not given)",,micronucleated cells,0.9%
O=S(=O)(c1ccc(-c2ccc3c(Nc4ccc(OCc5ccccc5)c(Cl)c4)nccc3c2)cc1)N1CCOCC1,"cytotoxicity, MTT",,48 h,,TC50,> 5 µM
O=c1c2cc(Cl)c(CO)cc2[nH]c(=S)n1Cc1cccnc1,,,24 h,,LD50,> 100 µM
CN1CCN(S(=O)(=O)c2ccc(-c3ccc4c(Nc5ccc(OCc6cccc(F)c6)c(Cl)c5)nccc4c3)cc2)CC1,"cytotoxicity, MTT",,48 h,,TC50,> 15 µM
Cc1cc(Nc2ccnc3ccc(-c4ccc(S(=O)(=O)N5CCOCC5)cc4)cc23)on1,"cytotoxicity, MTT",,48 h,,TC50,> 20 µM
CN1CCCN(S(=O)(=O)c2ccc(-c3ccc4ccnc(Nc5ccc(OCc6cccc(F)c6)c(Cl)c5)c4c3)cc2)CC1,"cytotoxicity, MTT",,48 h,,TC50,> 15 µM
O=c1ccc2ccccc2o1,refers to: phospholipidosis,,"concentration not given, 24 h, phospholipidosis and steatosis panel",,probability of response,93.8%
Fc1cccc(COc2ccc(Nc3nncc4cc(-c5cccc(N6CCOCC6)c5)ccc34)cc2Cl)c1,"cytotoxicity, MTT",,48 h,,TC50,> 15 µM
NC(=O)c1cc(-c2ccsc2)ccc1OCCc1cccc(F)c1,,galactose medium,3 (unit not given),,CC50,32 ± 19 µM
CCN(N=O)C(N)=O,,,"maximum tested, 24 (unit not given)",,micronucleated cells,1.4%
CN1CCCN(S(=O)(=O)c2ccc(-c3ccc4c(Nc5ccc(OCc6cccc(F)c6)c(Cl)c5)nccc4c3)cc2)CC1,"cytotoxicity, MTT",,48 h,,TC50,> 15 µM

# Excerpt of the above:
SMILES,assay,system,conditions,how to read,measurement,value
COCCNC(=O)c1cc(-c2ccoc2)ccc1OCCc1cccc(F)c1,,galactose medium,3 (unit not given),,CC50,> 100 µM
Cc1cnc(Nc2ccnc3ccc(-c4ccc(S(=O)(=O)N5CCOCC5)cc4)cc23)s1,"cytotoxicity, MTT",,48 h,,TC50,> 20 µM
CCc1ccc(OCCc2cccc(F)c2)c(C(N)=O)c1,,,3 (unit not given),reference: CC50 glucose over CC50 galactose,selectivity ratio,> 1
C[C@H]1CCC/C=C/[C@@H]2C[C@H](O)C[C@H]2[C@H](O)/C=C/C(=O)O1,,,72 h,reference: HepG2 CC50 over EC50,selectivity index,987
Cc1ccc(OCCc2cccc(F)c2)c(C(N)=O)c1,,galactose medium,3 (unit not given),,CC50,40 ± 6.5 µM
